Measured values gathered from unrelated publications.
“And” joins repeats or separate records; there may be more than shown. Numbers after ± are the reported error.
Sequence of UniProt Q96S44 (whole entry, looked up): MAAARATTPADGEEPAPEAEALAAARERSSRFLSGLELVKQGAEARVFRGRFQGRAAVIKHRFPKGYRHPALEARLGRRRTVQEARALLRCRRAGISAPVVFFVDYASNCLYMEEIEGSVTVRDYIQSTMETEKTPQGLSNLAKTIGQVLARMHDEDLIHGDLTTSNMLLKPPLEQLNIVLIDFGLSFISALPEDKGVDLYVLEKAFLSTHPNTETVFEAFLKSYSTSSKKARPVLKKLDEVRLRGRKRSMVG

| SMILES | tested on | assay | system | conditions | how to read | quantity | result |
| --- | --- | --- | --- | --- | --- | --- | --- |
| CN1CC[C@@H](c2c(O)cc(O)c3c(=O)cc(-c4ccc(C(F)(F)F)cc4Cl)oc23)[C@@H]1CO |  | item: Hypotension | B-cell malignancies | oral, 100 mg, intermittent dosing |  | patients with adverse event | 0% |
| Cn1cncc1-c1c(F)cncc1NC(=O)c1c(N)nn2cc(F)cnc12 |  |  | human patients | oral, 80 mg once daily, 21 days |  | dose-limiting toxicity anaemia | 0% |
| CN1CCN(S(=O)(=O)c2cc([N+](=O)[O-])ccc2N(CCOS(C)(=O)=O)CCOS(C)(=O)=O)CC1 |  |  | NOD/SCID mouse, naive, blood | intraperitoneal, 6.3 mg/kg, week 1 |  | hemoglobin | 164 g/L and 150 g/L and 160 g/L |
| CC(=O)c1c(C)c2cnc(Nc3ccc(C4CCN(CCS(C)(=O)=O)CC4)cn3)nc2n(C2CCCC2)c1=O |  |  | HR+/HER2- advanced breast cancer patients | oral, 300 mg |  | patients with serious AE | 25% |
| Clc1ccc(Cl)c(-c2cc(Cl)ccc2Cl)c1 |  |  | Sprague Dawley rat, spleen | intraperitoneal, 1 mg/kg |  | organ weight | 0.43 g |
| CO[C@H]1C[C@@H]2CC[C@@H](C)[C@@](O)(O2)C(=O)C(=O)N2CCCC[C@H]2C(=O)O[C@H]([C@H](C)C[C@@H]2CC[C@@H](OC(=O)NCCOCCOCCOCCOCCOCCOCCOCCOCCC(=O)N3CCc4cc(Cn5nc(-c6ccc7oc(N)nc7c6)c6c(N)ncnc65)ccc4C3)[C@H](OC)C2)C[C@@H](O)[C@H](C)/C=C(\C)[C@@H](O)[C@@H](OC)C(=O)[C@H](C)C[C@H](C)/C=C/C=C/C=C/1C |  | dose-escalation trial | patients with advanced solid tumours | intravenous, all doses weekly, any grade |  | decreased appetite TEAE incidence | 35% |
| O=C(Nc1ccccc1)C1CCN(C(=O)Oc2cccnc2)CC1 |  | adverse event reporting | healthy women | oral, 20 mg, 7 days |  | subjects with blurred vision | 0% |
| C[C@]1(CO)Cc2ncn(-c3ccc(C#N)c(Cl)c3)c2C(=O)O1 |  |  | healthy Japanese adults, plasma | 80 mg once daily, multiple dose |  | half-life at steady state | 5.9 h |
| [O-][S+]1CCc2nc(N3CCC(c4ncc(Cl)cn4)CC3)nc(NC3(CO)CCC3)c21 (stereo not shown) |  | item: abdominal distension | healthy male subjects | dose not given, single rising dose, total |  | subjects with adverse event | 8.3% |
| CCCCCOc1ccc(-c2ccc(-c3ccc(C(=O)N[C@H]4C[C@@H](O)[C@@H](OCC[N+](C)(C)C)NC(=O)[C@@H]5[C@@H](O)[C@@H](C)CN5C(=O)[C@H]([C@@H](C)O)NC(=O)[C@H]([C@H](O)[C@@H](O)c5ccc(O)cc5)NC(=O)[C@@H]5C[C@@H](O)CN5C(=O)[C@H]([C@@H](C)O)NC4=O)cc3)cc2)cc1 |  |  | adult patients in ICU, plasma | intravenous, 400 mg loading, after first dose, geometric mean |  | Cmax | 17200 ng/mL |
| CC(C)C[C@H](NC(=O)[C@@H](NC(=O)[C@H](CCCNC(=N)N)NC(=O)[C@H](CCC(N)=O)NC(=O)[C@H](Cc1ccccc1)NC(=O)[C@H](Cc1ccc(O)cc1)NC(=O)[C@H](CC(N)=O)NC(=O)[C@H](Cc1c[nH]c2ccccc12)NC(=O)[C@@H](NC(=O)[C@H](CCCNC(=N)N)NC(=O)[C@H](CCCCN)NC(=O)[C@@H](N)Cc1ccccc1)C(C)C)C(C)C)C(=O)N[C@H](C(=O)N[C@@H](CCCCN)C(=O)N[C@@H](CCCCN)C(N)=O)C(C)C |  | reversed-phase UPLC | C18 column, TFA |  |  | elution acetonitrile content | 44.4% |
| C[C@@H](NC(=O)N1C(=O)[C@H](Cc2ccnc(N)c2)[C@H]1C(=O)O)C1CCCCC1 |  |  | healthy adult Chinese volunteers | continuous intravenous infusion, 2.25 mg/kg/h, 5-day infusion, CTCAE 5.0 grading |  | drug-related decreased neutrophil | 0% |
| C=CC(=O)N1CC[C@H](n2nc(C#Cc3cc(OC)cc(OC)c3)c3c(N)ncnc32)C1 |  |  | human patients, serum | oral, dose not given, QD, before phosphate binder start |  | serum phosphate, median | 5.85 mg/dL |
| C=CCNc1c(O)cc2c(O)c1C[C@@H](C)C[C@H](OC)[C@H](O)[C@@H](C)/C=C(\C)[C@H](OC(N)=O)[C@@H](OC)/C=C\C=C(/C)C(=O)N2 |  |  | unresectable or metastatic sarcoma | intravenous, 150 mg/m^2, grade 3-4 lab change |  | patients with lipase increase | 0% |
| CC[C@H](C)[C@H](NC(=O)[C@H](Cc1ccccc1)NC(=O)[C@H](CCC(=O)O)NC(=O)[C@H](CCCNC(=N)N)NC(=O)[C@H](C)NC(=O)[C@H](C)NC(=O)[C@H](CCC(N)=O)NC(=O)[C@H](CCC(=O)O)NC(=O)[C@H](CCC(=O)O)NC(=O)[C@H](CC(C)C)NC(=O)[C@H](Cc1ccc(O)cc1)NC(=O)[C@H](CO)NC(=O)[C@H](CO)NC(=O)[C@@H](NC(=O)[C@H](CC(=O)O)NC(=O)[C@H](CO)NC(=O)[C@@H](NC(=O)[C@H](Cc1ccccc1)NC(=O)[C@@H](NC(=O)CNC(=O)[C@H](CCC(=O)O)NC(=O)[C@H](C)NC(=O)CCc1cnc[nH]1)[C@@H](C)O)[C@@H](C)O)C(C)C)C(=O)N[C@@H](C)C(=O)N[C@@H](Cc1c[nH]c2ccccc12)C(=O)N[C@@H](CC(C)C)C(=O)N[C@H](C(=O)N[C@@H](CCCNC(=N)N)C(=O)NCC(=O)N[C@@H](CCCNC(=N)N)C(=O)N[C@@H](CCCCNC(=O)COCCOCCNC(=O)COCCOCCNC(=O)CC[C@H](NC(=O)CCCCCCCCCCCCCCCCC(=O)O)C(=O)O)C(=O)NCC(=O)NCC(=O)N[C@@H](CO)C(=O)N[C@@H](CCCCNC(=O)[C@H](CCCCNC(=O)[C@H](CCCCNc1c(NCCCCCN(O)C(=O)CCC(=O)NCCCCCN(O)C(=O)CCC(=O)NCCCCCN(O)C(C)=O)c(=O)c1=O)Nc1c(NCCCCCN(O)C(=O)CCC(=O)NCCCCCN(O)C(=O)CCC(=O)NCCCCCN(O)C(C)=O)c(=O)c1=O)NC(=O)[C@H](CCCCNc1c(NCCCCCN(O)C(=O)CCC(=O)NCCCCCN(O)C(=O)CCC(=O)NCCCCCN(O)C(C)=O)c(=O)c1=O)Nc1c(NCCCCCN(O)C(=O)CCC(=O)NCCCCCN(O)C(=O)CCC(=O)NCCCCCN(O)C(C)=O)c(=O)c1=O)C(=O)O)C(C)C [zirconium-89 labelled] |  | ex vivo gamma counting | male Sprague-Dawley rats, stomach | intravenous, 1 nmol, 24 h |  | tissue uptake | 0.227 %ID/g |
| C[C@H]1CN(c2n[nH]c3nc(N[C@H]4CC[C@H](NS(=O)(=O)CCC(F)(F)F)CC4)ncc23)CCO1 | TP53RK (Homo sapiens, UniProt Q96S44) | biochemical |  |  |  | IC50 | ≥ 20 µM |

| SMILES | tested on | assay | system | conditions | how to read | quantity | result |
| --- | --- | --- | --- | --- | --- | --- | --- |
| COc1ncnn2ccc(-c3cnc4nc(C)n(Cc5nnc([C@@H](C)F)o5)c4c3)c12 |  |  | human | oral, dose not given, grade 5 |  | patients with dehydration | 0% |
| CC(C)C[C@H](NC(=O)[C@H](CCCCN)NC(=O)OCC1c2ccccc2-c2ccccc21)C(=O)N[C@H](C(=O)N[C@@H](Cc1ccccc1)C(=O)N[C@@H](Cc1ccccc1)C(=O)N[C@@H](CCCCN)C(=O)NCC(=O)N[C@@H](Cc1ccccc1)C(=O)N[C@@H](C)C(=O)N[C@@H](Cc1c[nH]c2ccccc12)C(=O)N[C@@H](CC(N)=O)C(=O)N[C@H](C(=O)N[C@H]1CSSC[C@@H](C(=O)N[C@@H](Cc2c[nH]cn2)C(=O)N[C@@H](CCCNC(=N)N)C(=O)N[C@@H](CCCNC(=N)N)C(=O)N[C@@H](C)C(=O)N[C@@H](CC(N)=O)C(N)=O)NC(=O)[C@H](C(C)C)NC(=O)[C@H](CCCNC(=N)N)NC(=O)[C@H](C(C)C)NC(=O)CNC(=O)[C@H](CC(N)=O)NC(=O)[C@H](CCCNC(=N)N)NC(=O)[C@H](Cc2ccc(O)cc2)NC(=O)[C@H](C(C)C)NC1=O)C(C)C)C(C)C |  |  | ICR mouse, blood | intramammary, 10 mg/kg, day 5, 3 d dosing |  | AST | 28.5 ± 1.17 IU/L |
| C[C@@H]1NC(=O)[C@H](CCCCNC(=O)CO/N=C/C(=O)NCCCC[C@@H]2NC(=O)[C@@H](Cc3ccccc3)NC(=O)[C@H](CC(=O)O)NC(=O)CNC(=O)[C@H](CCCNC(=N)N)NC2=O)NC(=O)CNC(=O)[C@@H]2CCCN2C(=O)[C@H](CCCCNC(=O)CO/N=C/C(=O)NCCCC[C@@H]2NC(=O)[C@@H](Cc3ccccc3)NC(=O)[C@H](CC(=O)O)NC(=O)CNC(=O)[C@H](CCCNC(=N)N)NC2=O)NC(=O)[C@H](CCCCNC(=O)CN2CCCNCCNCCCNCC2)NC(=O)[C@H](CCCCNC(=O)CO/N=C/C(=O)NCCCC[C@@H]2NC(=O)[C@@H](Cc3ccccc3)NC(=O)[C@H](CC(=O)O)NC(=O)CNC(=O)[C@H](CCCNC(=N)N)NC2=O)NC(=O)CNC(=O)[C@@H]2CCCN2C(=O)[C@H](CCCCNC(=O)CO/N=C/C(=O)NCCCC[C@@H]2NC(=O)[C@@H](Cc3ccccc3)NC(=O)[C@H](CC(=O)O)NC(=O)CNC(=O)[C@H](CCCNC(=N)N)NC2=O)NC1=O [copper-64 labelled] |  |  | normal mice, liver | intravenous, 0.74 MBq, 3 h post-injection |  | tissue uptake | 6.86 ± 0.34 %ID/g |
| COc1cc2c(Oc3ccc4[nH]c(C)cc4c3F)ccnc2cc1OCC1(N)CC1 |  |  | paediatric recurrent refractory sarcoma | 8 mg/kg |  | grade 3 Neutropenia | 0% |
| N=c1c2c(-c3ccccc3)c(-c3ccccc3)n(Cc3ccccc3)c2ncn1[C@H]1CC[C@H](O)CC1 |  |  | cynomolgus monkey, male, urine | intravenous, 0.5 mg/kg, 0-144 h | reference: dose | unchanged drug excreted in urine | < 1% |
| Cn1c(-c2ccc(C(N)=O)cc2F)nnc1C(C)(C)Oc1c(F)cc(Cl)cc1F |  |  | human | oral, 6 mg, single ascending dose, incl. administration site |  | general disorder TEAE | 33.3% |
| NC(=O)[C@H]1CCN(c2ncnc(N)c2F)C[C@@H]1N1CCC[C@@H](Nc2cc(Cl)cc(C(F)(F)F)c2)C1=O |  |  | B-cell malignancy patients | oral, 20.5 mg twice daily, dose |  | grade ≥3 neutropenia | 67% |
| CN(C)c1cccc2c(S(=O)(=O)N3CCN(c4ccccc4)CC3)cccc12 |  |  | toluene | 20 °C |  | excitation maximum | 321 nm |
| COc1ccnc(C(=O)N[C@H]2COC(=O)[C@H](Cc3ccccc3)[C@@H](OC(=O)C(C)C)[C@H](C)OC2=O)c1OCOC(=O)C(C)C |  |  | pond water | 0.2 mg/L, 21.0 °C, whole system, aerobic mineralisation |  | DT50 | 0.1 days |
| O=C(O)CNCP(=O)(O)O |  |  | cow whole milk | 2000 nM | reference: milk fat over skim milk | milk fat partition ratio | 0.21 |
| O[C@H]1CCCN[C@@H]1CCCn1cnc2c(Cl)c(Cl)ccc21 |  |  | healthy CYP2D6 intermediate metabolizers, plasma | oral, 150 mg multiple doses |  | Cmax at steady state | 351 ng/mL |
| CCCSc1ccc2nc(NC(=O)OC)[nH]c2c1 |  |  | mouse, blood | oral, 50 mg/kg, tolerability, mean |  | plateletcrit | 0.08% |
| CC(C)(c1ccccc1)c1cc(-n2nc3ccccc3n2)c(O)c(C(C)(C)c2ccccc2)c1 |  |  | human aged 21-60 years | concentration not given, sunscreen, 95th percentile |  | daily dermal exposure dose | 1.56 ng/kg/day |
| CC(C)CC(=O)OC[C@H]1O[C@@](C#N)(c2ccc3c(N)ncnn23)[C@H](O)[C@@H]1O |  | plasma protein binding | dog plasma | 0.9 µM, time not given |  | recovery | 95.4% |
| CC[C@H](C)CCCCC(=O)N[C@@H](CCN)C(=O)N[C@H](C(=O)N[C@@H](CCN)C(=O)N[C@H]1CCNC(=O)[C@H]([C@@H](C)O)NC(=O)[C@H](CCN)NC(=O)[C@H](CCN)NC(=O)[C@H](CC(C)C)NC(=O)[C@@H](Cc2ccccc2)NC(=O)[C@H](CCN)NC1=O)[C@@H](C)O |  |  | critically ill patients, plasma | intravenous, dose not given, steady state, Low AUC group, median |  | Cmax | 3650 ng/mL |

Excerpt of the above:
| SMILES | tested on | assay | system | conditions | how to read | quantity | result |
| --- | --- | --- | --- | --- | --- | --- | --- |
| CN1CC[C@@H](c2c(O)cc(O)c3c(=O)cc(-c4ccc(C(F)(F)F)cc4Cl)oc23)[C@@H]1CO |  | item: Hypotension | B-cell malignancies | oral, 100 mg, intermittent dosing |  | patients with adverse event | 0% |
| Cn1cncc1-c1c(F)cncc1NC(=O)c1c(N)nn2cc(F)cnc12 |  |  | human patients | oral, 80 mg once daily, 21 days |  | dose-limiting toxicity anaemia | 0% |
| CN1CCN(S(=O)(=O)c2cc([N+](=O)[O-])ccc2N(CCOS(C)(=O)=O)CCOS(C)(=O)=O)CC1 |  |  | NOD/SCID mouse, naive, blood | intraperitoneal, 6.3 mg/kg, week 1 |  | hemoglobin | 164 g/L and 150 g/L and 160 g/L |
| CC(=O)c1c(C)c2cnc(Nc3ccc(C4CCN(CCS(C)(=O)=O)CC4)cn3)nc2n(C2CCCC2)c1=O |  |  | HR+/HER2- advanced breast cancer patients | oral, 300 mg |  | patients with serious AE | 25% |
| Clc1ccc(Cl)c(-c2cc(Cl)ccc2Cl)c1 |  |  | Sprague Dawley rat, spleen | intraperitoneal, 1 mg/kg |  | organ weight | 0.43 g |
